Measured values gathered from unrelated publications.
Each numbered part is a random draw from the data of one study; scales do not carry over between parts. Values joined by “and” are separate records of one study, mostly repeats; a detail may differ. Numbers after ± are the reported error.
Chain of UniProt Q16853 (whole entry, looked up): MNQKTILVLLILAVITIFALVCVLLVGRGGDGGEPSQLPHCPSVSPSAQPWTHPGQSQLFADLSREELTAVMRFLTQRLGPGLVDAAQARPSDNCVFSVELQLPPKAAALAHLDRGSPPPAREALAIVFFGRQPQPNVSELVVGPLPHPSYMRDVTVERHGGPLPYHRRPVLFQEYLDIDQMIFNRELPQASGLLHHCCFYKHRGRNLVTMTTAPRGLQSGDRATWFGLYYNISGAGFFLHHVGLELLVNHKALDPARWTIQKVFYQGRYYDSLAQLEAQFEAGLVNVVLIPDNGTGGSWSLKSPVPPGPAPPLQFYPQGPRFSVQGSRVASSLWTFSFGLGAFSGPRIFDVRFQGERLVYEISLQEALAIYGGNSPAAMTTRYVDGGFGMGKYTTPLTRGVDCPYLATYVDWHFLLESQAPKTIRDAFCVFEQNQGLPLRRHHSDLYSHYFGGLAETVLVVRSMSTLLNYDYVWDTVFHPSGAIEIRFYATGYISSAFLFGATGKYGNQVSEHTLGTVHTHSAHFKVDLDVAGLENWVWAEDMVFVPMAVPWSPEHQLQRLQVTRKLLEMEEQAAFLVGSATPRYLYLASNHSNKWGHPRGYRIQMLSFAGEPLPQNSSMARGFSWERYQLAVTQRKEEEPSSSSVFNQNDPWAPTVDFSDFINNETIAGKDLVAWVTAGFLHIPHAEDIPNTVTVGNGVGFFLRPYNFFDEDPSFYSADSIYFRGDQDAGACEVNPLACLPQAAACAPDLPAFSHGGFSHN
Chain of UniProt P05164 (whole entry, looked up): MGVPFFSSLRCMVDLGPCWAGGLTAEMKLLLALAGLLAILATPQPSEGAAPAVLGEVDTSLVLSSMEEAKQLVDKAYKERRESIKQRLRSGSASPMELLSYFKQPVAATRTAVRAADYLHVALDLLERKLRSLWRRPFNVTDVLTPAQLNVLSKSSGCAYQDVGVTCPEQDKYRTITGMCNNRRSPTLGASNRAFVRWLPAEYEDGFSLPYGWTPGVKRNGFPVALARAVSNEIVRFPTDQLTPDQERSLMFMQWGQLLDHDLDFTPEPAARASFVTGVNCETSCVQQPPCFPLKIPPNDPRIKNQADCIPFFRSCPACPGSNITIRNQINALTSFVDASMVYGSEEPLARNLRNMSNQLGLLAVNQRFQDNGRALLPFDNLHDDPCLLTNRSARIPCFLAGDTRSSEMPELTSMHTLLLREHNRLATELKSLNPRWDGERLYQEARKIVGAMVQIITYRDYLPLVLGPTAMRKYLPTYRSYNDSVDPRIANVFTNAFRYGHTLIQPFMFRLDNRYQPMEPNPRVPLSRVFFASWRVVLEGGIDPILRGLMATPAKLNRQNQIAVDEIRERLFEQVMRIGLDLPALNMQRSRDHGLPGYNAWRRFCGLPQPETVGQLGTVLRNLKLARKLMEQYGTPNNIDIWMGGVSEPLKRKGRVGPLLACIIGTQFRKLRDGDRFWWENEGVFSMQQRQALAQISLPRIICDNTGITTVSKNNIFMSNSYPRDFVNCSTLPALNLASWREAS
Chain of UniProt Q9NY57 (whole entry, looked up): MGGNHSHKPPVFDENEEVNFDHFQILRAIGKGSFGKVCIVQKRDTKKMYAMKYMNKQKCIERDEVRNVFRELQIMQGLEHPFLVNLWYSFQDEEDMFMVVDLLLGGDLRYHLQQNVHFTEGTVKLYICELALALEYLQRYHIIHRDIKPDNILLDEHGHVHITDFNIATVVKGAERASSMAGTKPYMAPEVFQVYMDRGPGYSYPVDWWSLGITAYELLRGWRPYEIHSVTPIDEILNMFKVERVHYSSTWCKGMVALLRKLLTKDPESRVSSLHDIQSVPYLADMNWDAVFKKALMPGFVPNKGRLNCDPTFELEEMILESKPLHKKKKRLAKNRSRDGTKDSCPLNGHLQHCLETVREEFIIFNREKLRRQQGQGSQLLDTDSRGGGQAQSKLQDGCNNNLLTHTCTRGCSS
Chain of UniProt P37023 (whole entry, looked up): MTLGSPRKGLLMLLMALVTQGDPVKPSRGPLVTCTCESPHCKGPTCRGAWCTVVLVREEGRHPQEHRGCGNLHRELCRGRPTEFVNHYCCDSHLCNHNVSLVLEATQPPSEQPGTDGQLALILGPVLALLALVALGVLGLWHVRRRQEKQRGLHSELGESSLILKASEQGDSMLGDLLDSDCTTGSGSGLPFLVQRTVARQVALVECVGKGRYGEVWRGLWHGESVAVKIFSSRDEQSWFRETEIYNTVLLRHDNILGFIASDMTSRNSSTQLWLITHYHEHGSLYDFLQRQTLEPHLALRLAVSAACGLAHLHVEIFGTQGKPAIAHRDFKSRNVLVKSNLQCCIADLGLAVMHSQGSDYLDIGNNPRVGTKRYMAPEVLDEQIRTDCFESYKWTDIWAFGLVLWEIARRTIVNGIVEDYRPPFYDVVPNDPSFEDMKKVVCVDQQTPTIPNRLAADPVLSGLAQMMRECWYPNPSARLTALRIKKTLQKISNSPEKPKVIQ
Chain of UniProt Q13163 (whole entry, looked up): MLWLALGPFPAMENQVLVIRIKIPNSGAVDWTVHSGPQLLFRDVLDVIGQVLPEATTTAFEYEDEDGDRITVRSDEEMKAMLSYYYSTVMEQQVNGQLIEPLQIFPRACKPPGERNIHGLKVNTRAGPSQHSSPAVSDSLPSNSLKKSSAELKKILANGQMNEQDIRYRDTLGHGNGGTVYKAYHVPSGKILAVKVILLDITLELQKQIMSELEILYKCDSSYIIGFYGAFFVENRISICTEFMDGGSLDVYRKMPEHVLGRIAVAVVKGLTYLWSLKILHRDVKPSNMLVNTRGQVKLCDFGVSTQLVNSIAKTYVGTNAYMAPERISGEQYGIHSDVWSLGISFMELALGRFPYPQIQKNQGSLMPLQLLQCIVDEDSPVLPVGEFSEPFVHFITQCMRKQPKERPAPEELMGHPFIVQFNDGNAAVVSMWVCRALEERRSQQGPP

Series 1 — cell line: MDA-MB-231; method: qRT-PCR; time: 6 h; setting: unit not given
SMILES: CCN(CC)CC(=O)N1CCN(c2nc(NCc3nc4cc(Cl)c(Cl)cc4[nH]3)c3ncn(CC)c3n2)CC1
| measured | tested at | relative to | mRNA level |
| --- | --- | --- | --- |
| RAD51 | 50 nM | untreated | 0.295 |
| ATM | 0.05 µM | DMSO | 0.419 and 0.388 and 0.406 |
| ATR | 0.05 µM | DMSO | 0.377 and 0.418 and 0.423 |
| ATR | 50 nM | untreated | 0.406 |
| FANCD2 | 0.05 µM | DMSO | 0.532 and 0.485 and 0.517 |
| FANCI | 50 nM | untreated | 0.435 |

Series 2 — tested at: 1 µM
SMILES: CC[C@@]1(c2cccc(-c3c(F)cncc3OC)c2)C2=C(Nc3n[nH]cc31)[C@H](F)C(C)(C)CC2=O (single isomer, unassigned)
| target | observed | method | relative to | remaining binding [%] |
| --- | --- | --- | --- | --- |
| BLK (Homo sapiens, UniProt P51451) | binding | competition with immobilised ligand | – | 74 |
| MAPK7 (Homo sapiens, UniProt Q13164) | binding | competition with immobilised ligand | – | 100 |
| TLK1 (Homo sapiens, UniProt Q9UKI8) | binding | competition with immobilised ligand | – | 100 |
| PIK3C2B (Homo sapiens, UniProt O00750) | binding | competition with immobilised ligand | – | 70 |
| CDK2 (Homo sapiens, UniProt P24941) | binding | competition with immobilised ligand | – | 2.2 |
| STK32B (Homo sapiens, UniProt Q9NY57) | kinase binding | KINOMEscan | DMSO control | 91 |
| PIK3CA (Homo sapiens, UniProt P42336) | binding | competition with immobilised ligand | – | 64 |
| SRPK1 (Homo sapiens, UniProt Q96SB4) | binding | competition with immobilised ligand | – | 81 |
| TAOK3 (Homo sapiens, UniProt Q9H2K8) | kinase binding | KINOMEscan | DMSO control | 71 |
| MAP2K1 (Homo sapiens, UniProt Q02750) | kinase binding | KINOMEscan | DMSO control | 76 |
| MAP2K5 (Homo sapiens, UniProt Q13163) | binding | competition with immobilised ligand | – | 65 |
| MAPK12 (Homo sapiens, UniProt P53778) | kinase binding | KINOMEscan | DMSO control | 70 |

Series 3 — cell line: U-87 MG; tested at: concentration not given; relative to: DMSO
Structure (SMILES): CCN1/C(=C/C=C2\CCCC(/C=C/C3=[N+](CC)c4ccccc4C3(C)C)=C2NCCCCCCCCN2CCC(Nc3nc4ccccc4n3Cc3ccc(F)cc3)CC2)C(C)(C)c2ccccc21
| measured | log2 fold change |
| --- | --- |
| IER5L mRNA | -1.79 |
| PCNA mRNA | -1.38 |
| LTF mRNA | 5.84 |
| KLHL29 mRNA | 1.37 |
| SYT1 mRNA | 1.34 |
| ADORA1 mRNA | -3.46 |
| PRKAR2B mRNA | -1.05 |
| SP7 mRNA | -4.89 |
| GCH1 mRNA | 1.6 |
| ASB1 mRNA | 1.4 |
| C9orf72 mRNA | 1.99 |
| SKA2 mRNA | -1.82 |
| GBP2 mRNA | -1.68 |
| EVC2 mRNA | 0.836 |
| SLC9A1 mRNA | 1.07 |
| DIPK2A mRNA | 1.16 |

Series 4 — observed: thermal unfolding; method: differential scanning fluorimetry; tested at: 5.5 µM; direction: higher = more unfolded
Structure (SMILES): C[C@@H]1CN(c2ccc(-c3cc(C(=O)NCCOCCOCCOCCOCCNC(=O)/C=C/c4[nH]cc(C(=O)N[C@@H](CC(N)=O)c5ccc(F)c(Cl)c5)c4-c4ccc(Cl)cc4F)ccc3F)cc2NC(=O)c2c[nH]c(=O)cc2C(F)(F)F)C[C@H](C)N1C
DCAF1: DDB1- and CUL4-associated factor 1 (DCAF1, Homo sapiens, UniProt Q9Y4B6)
Chain of UniProt Q9Y4B6 (whole entry, looked up): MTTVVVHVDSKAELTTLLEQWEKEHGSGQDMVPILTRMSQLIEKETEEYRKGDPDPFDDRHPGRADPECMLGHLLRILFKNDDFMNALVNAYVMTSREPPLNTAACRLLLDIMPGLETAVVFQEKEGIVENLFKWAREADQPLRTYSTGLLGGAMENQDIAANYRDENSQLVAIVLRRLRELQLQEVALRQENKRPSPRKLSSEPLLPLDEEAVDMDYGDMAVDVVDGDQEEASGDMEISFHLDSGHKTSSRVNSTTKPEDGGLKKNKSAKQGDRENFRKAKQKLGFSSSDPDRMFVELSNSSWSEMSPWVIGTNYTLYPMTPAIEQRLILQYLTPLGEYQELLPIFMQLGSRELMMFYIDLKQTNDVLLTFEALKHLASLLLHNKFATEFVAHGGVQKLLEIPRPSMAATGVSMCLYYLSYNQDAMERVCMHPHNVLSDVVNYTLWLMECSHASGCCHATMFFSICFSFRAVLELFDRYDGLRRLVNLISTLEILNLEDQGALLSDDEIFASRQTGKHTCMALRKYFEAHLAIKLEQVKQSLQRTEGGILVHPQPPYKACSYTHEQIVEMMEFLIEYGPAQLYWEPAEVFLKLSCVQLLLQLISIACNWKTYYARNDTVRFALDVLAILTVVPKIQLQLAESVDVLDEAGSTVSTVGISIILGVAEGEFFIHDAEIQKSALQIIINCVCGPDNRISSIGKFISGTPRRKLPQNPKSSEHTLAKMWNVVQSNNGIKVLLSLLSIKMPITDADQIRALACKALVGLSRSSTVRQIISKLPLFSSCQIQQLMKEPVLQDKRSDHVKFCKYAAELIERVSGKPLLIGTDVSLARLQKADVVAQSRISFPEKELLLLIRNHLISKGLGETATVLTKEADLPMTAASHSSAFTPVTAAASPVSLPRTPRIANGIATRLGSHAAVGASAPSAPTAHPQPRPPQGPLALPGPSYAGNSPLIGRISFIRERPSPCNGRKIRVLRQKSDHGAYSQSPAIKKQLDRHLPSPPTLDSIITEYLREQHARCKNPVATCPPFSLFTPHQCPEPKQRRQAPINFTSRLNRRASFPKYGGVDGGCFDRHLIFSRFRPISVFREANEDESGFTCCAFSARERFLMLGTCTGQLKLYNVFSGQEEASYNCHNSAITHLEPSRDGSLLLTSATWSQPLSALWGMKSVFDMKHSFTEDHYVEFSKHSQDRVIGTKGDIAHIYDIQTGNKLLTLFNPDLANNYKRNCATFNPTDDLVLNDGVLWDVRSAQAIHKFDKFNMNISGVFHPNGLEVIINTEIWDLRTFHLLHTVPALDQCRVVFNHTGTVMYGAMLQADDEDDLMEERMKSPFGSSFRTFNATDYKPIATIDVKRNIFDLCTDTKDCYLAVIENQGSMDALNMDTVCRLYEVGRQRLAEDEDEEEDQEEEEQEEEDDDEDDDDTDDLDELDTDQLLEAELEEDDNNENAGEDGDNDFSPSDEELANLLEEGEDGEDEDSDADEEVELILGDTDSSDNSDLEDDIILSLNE
WDR5: WD repeat-containing protein 5 (WDR5, Homo sapiens, UniProt P61964)
| target | temperature | SYPRO Orange fluorescence [a.u.] |
| --- | --- | --- |
| DCAF1 | 67.21 °C | 58800 |
| DCAF1 | 31.2 °C | 9660 |
| WDR5 | 56.81 °C | 16600 |
| DCAF1 | 93.61 °C | 31000 |
| WDR5 | 86.41 °C | 53600 |
| WDR5 | 92.61 °C | 47900 |
| WDR5 | 58.41 °C | 16200 |
| WDR5 | 25.6 °C | 12900 |
| WDR5 | 63.21 °C | 14200 |
| WDR5 | 60.81 °C | 15400 |
| DCAF1 | 84.81 °C | 40500 |

Series 5
SMILES: COCC1CC2C(CCC3C(O)CCC32)c2ccc(O)cc21 (stereo not shown)
| cell line | method | measured | tested at | relative to | mRNA level ratio |
| --- | --- | --- | --- | --- | --- |
| A549 | microarray | SPC25 | 25 µM | untreated | 0.841 |
| A549 | DNA microarray | ACTB | 100 µM | untreated cells | 0.806 and 0.852 and 0.811 and 0.789 and 0.832 |
| A549 | DNA microarray | KIF20A | 100 µM | untreated cells | 0.805 and 0.811 and 0.817 and 0.861 and 0.852 |
| SK-OV-3 | microarray | GZMK | 25 µM | untreated | 1.23 |
| A549 | DNA microarray | GAPDH | 25 µM | untreated cells | 0.819 and 0.815 and 0.804 and 0.822 |
| SK-OV-3 | DNA microarray | KIF20A | 100 µM | untreated cells | 0.969 and 1.02 and 1 and 0.975 |
| PANC-1 | microarray | AURKA | 25 µM | untreated | 1.51 |
| PANC-1 | microarray | PIF1 | 100 µM | untreated | 1.44 |
| SK-OV-3 | microarray | GZMK | 100 µM | untreated | 1 |
| PANC-1 | DNA microarray | MCM10 | 100 µM | untreated cells | 1.13 |
| A549 | microarray | RFC3 | 100 µM | untreated | 0.967 |
| PANC-1 | microarray | SPC25 | 25 µM | untreated | 1.35 |
| A549 | DNA microarray | CCL8 | 100 µM | untreated cells | 1 |
| PANC-1 | DNA microarray | KIF20A | 25 µM | untreated cells | 1.45 and 1.49 and 1.48 and 1.52 and 1.5 |
| PANC-1 | microarray | AURKA | 100 µM | untreated | 1.44 |
| PANC-1 | microarray | CDC25B | 100 µM | untreated | 1.12 |
| A549 | microarray | CDC25B | 25 µM | untreated | 0.914 |

Series 6 — sample: plasma; route: oral
Compound: Cc1ccc(O)c(C)c1-c1cnc2[nH]c(-c3cnc(N4CCC(CN5CCN(c6ccc(NC7CCC(=O)NC7=O)cc6F)CC5)CC4)nc3)cc2c1C#N (stereo not shown)
| species | dose | half-life [h] |
| --- | --- | --- |
| Beagle dog, male | 5 mg/kg | 6.7 |
| cynomolgus monkey, male | 10 mg/kg | 12.1 |
| Sprague-Dawley rat, male | 10 mg/kg | 4.5 |

Series 7 — observed: membrane potential; method: FLIPR membrane potential; cell line: CHO-BC cells; tested at: concentration not given; setting: first screen; relative to: uninhibited control
Target: Sodium-dependent neutral amino acid transporter B(0)AT1 (SLC6A19, Homo sapiens, UniProt Q695T7)
Chain of UniProt Q695T7 (whole entry, looked up): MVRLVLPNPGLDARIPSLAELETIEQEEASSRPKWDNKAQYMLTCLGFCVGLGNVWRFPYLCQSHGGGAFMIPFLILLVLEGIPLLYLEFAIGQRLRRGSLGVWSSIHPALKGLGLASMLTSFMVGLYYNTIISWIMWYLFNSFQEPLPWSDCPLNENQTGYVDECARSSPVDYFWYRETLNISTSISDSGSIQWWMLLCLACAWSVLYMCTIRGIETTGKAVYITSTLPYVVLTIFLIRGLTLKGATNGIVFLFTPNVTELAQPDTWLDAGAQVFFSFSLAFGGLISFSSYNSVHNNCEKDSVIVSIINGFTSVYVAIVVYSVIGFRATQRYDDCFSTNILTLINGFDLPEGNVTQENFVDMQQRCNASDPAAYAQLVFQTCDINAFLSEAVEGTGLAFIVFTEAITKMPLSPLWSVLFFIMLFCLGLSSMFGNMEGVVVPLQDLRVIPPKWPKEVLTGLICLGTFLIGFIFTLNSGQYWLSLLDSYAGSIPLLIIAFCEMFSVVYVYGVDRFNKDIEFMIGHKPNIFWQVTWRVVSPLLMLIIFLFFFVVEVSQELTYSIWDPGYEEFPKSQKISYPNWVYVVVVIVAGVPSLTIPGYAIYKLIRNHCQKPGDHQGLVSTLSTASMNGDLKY
| SMILES | normalised transport activity |
| --- | --- |
| CCCNC(=O)COc1cc(C)c(Cl)c(C)c1 | 0.544 and 0.614 and 0.507 and 0.481 |
| Cc1cc(OCC(=O)NC(C)C)cc(C)c1Cl | 0.829 and 0.549 and 0.57 and 0.583 and 0.651 |
| CCNC(=O)COc1cc(C)c(Cl)c(C)c1 | 0.486 and 0.483 and 0.539 and 0.431 and 0.413 |
| Cc1cc(OC(C)C(=O)NC(C)C)cc(C)c1Cl (racemic) | 0.976 and 0.886 and 0.735 and 0.929 and 0.947 |
| Cc1cc(OCC(=O)NCc2ccccc2)cc(C)c1Cl | 1.05 and 1.01 and 0.96 and 1.17 and 1.13 |
| Cc1cc(OCC(=O)NCCc2ccccc2)cc(C)c1Cl | 0.969 and 0.941 and 1.05 and 1.06 and 0.96 |
| Cc1cc(OCC(=O)SC(C)C)cc(C)c1Cl | 1.27 and 1.15 and 1.1 and 1.01 and 1.23 |

Series 8 — time: 6 days
Structure (SMILES): Cc1ncsc1-c1ccc(C(CO)NC(=O)C2CC(O)CN2C(=O)C(C(C)C)n2cc(-c3ccc(COc4c(-c5c(C)c(F)cc6[nH]ncc56)c(C5CC5)cc5c(N6CC7CC6CN7)nc(OC6CCOCC6)nc45)cc3)nn2)cc1 (stereo not shown)
| cell line | observed | method | tested at | relative to | viability |
| --- | --- | --- | --- | --- | --- |
| A-375 | cell growth or viability | ATP luminescence | 1 nM | – | 90.3% and 88.3% and 99.1% and 87.9% |
| AsPC-1 | – | CellTiter-Glo | 3 nM | DMSO | 94.7% and 93.7% and 88.8% |
| AsPC-1 | – | CellTiter-Glo | 10 µM | DMSO | 3.55% and 3.68% and 3.93% |
| SW-403 | cell growth or viability | ATP luminescence | 10 µM | – | 2.04% and 1.42% and 1.55% and 1.4% |
| NCI-H1299 | cell growth or viability | ATP luminescence | 1 nM | – | 120% and 108% and 136% and 112% |
| SK-CO-1 | cell growth or viability | ATP luminescence | 30 nM | – | 113% and 102% and 101% and 106% |
| AsPC-1 | – | CellTiter-Glo | 1 nM | DMSO | 101% and 92.6% and 105% |
| NCI-H1299 | cell growth or viability | ATP luminescence | 0.1 µM | – | 111% and 92.8% and 119% and 107% |
| PSN1 | cell growth or viability | ATP luminescence | 30 nM | – | 91.1% and 117% and 94% and 84.9% |
| HT-29 | cell growth or viability | ATP luminescence | 300 pM | – | 99.1% and 116% and 101% and 100% |

Further values, each from its own experiment
| SMILES | target or system | assay | test system | conditions | scale | quantity | value |
| --- | --- | --- | --- | --- | --- | --- | --- |
| C=C(CN)COc1cccc(Cn2c(=S)[nH]c(=O)c3[nH]cnc32)c1 | Myeloperoxidase (MPO, Homo sapiens, UniProt P05164) | enzyme activity | – | 0.0015 µM | – | inhibition | 9.07% and 2.58% |
| CNC(=O)[C@@H]1CC[C@@H](n2c(-c3cc(OC)c(OC)c(OC)c3)nc3ccc(C(=O)NCCCN4CCN(c5ccccc5)CC4)cc32)C1 | ACVRL1 (Homo sapiens, UniProt P37023) | binding, TR-FRET | – | – | – | Kd | 3.2 nM |
| Cn1ncc2c1N(CCCCNC/C=C/C#N)c1cc(Cl)ccc1CC2.O=C(O)/C=C\C(=O)O | – | – | human liver microsomes | 1 µM | – | intrinsic clearance | 89.6 ± 14.7 µL/min/mg protein |
| Cc1nc(C)c(C=[N+]([O-])C(C)(C)C)nc1C | – | Western blot | MPTP mouse model, substantia nigra cytosol | 30 mg/kg, unit not given | relative to: β-actin | HO-1 protein level | 71.5 and 96.9 and 134 and 71.3 |
| C=CC(=O)NCCCN1c2ccccc2CCc2ccc(Cl)cc21 | E3 ubiquitin-protein ligase NEDD4 (Homo sapiens, UniProt P46934) | enzyme activity, inhibitor, TR-FRET | – | 11 µM | – | inhibition | < 10% |
| CS(=O)(=O)c1ccc(OC/C(=C/F)CN)cc1.Cl | Amine oxidase [copper-containing] 3 (Mus musculus, UniProt O70423) | – | mouse adipose tissue | 0.0041 µM | – | inhibition | 62.6% |
| N#C/C=C/CNCCCCN1c2ccccc2CCc2ccc(Cl)cc21.O=C(O)/C=C\C(=O)O | – | – | mouse liver microsomes | 1 µM | – | intrinsic clearance | 175 ± 93.1 µL/min/mg protein |
| FC(F)(F)c1ccc(C2=NOC3(NC(c4ccccc4)=NO3)N2c2ccccc2)cc1 (stereo not shown) | HepG2 | cell growth or viability, ATP luminescence | – | 10 µM, 72 h | – | viability | > 75% |
| CCOC(=O)c1ccc(Nc2c3c(nc4ccccc24)CCC3)cc1 | Leishmania donovani | – | THP-1, DD8, intracellular amastigotes | – | relative to: THP-1 cytotoxicity over amastigote activity | selectivity index | 2.08 |
| Cc1cc2c([nH]1)c(=O)[nH]c(=S)n2Cc1cccc(OC/C(=C/F)CN)c1 | AOC3 (Homo sapiens, UniProt Q16853) | enzyme activity, inhibitor, fluorescence | – | 500 pM | – | inhibition | -1.97% and 1.08% |
| Cc1ccc2nc3c(c(Nc4ccc(Br)cc4)c2c1)CCC3 | Leishmania donovani | – | THP-1, DD8, intracellular amastigotes | – | relative to: THP-1 cytotoxicity over amastigote activity | selectivity index | 2.28 |
| COc1cc(C(=O)OCCCN2CCCN(CCCOC(=O)c3cc(OC)c(OC)c(OCc4ccc([N+](=O)[O-])cc4)c3)CC2)cc(OC)c1OC | SLC29A1 (Homo sapiens, UniProt Q99808, del243-274/L168F/N288K/P175A) | ligand displacement | – | – | – | IC50 | 92.7 nM |
